Measured values of several laboratories.
Each line is one published result; not all experiments were run side by side. Numbers after ± are the reported error.

`CC(C)(C)N/C=C(/c1ccccc1)S(=O)(=O)O` has a Tmax of 2 h (female Swiss Webster mice, plasma; oral, 100 mg/kg).
`CC(NCCc1nsc2ccccc12)c1cccc2c1OCO2` (stereo not shown) has a Tmax of 0.25 h (CD-1 mice, plasma; subcutaneous, 3 mg/kg).
`N=C(N)NCCC[C@@H]1NC(=O)[C@H](Cc2c[nH]c3ccccc23)NC(=O)[C@@H](CC2CCCCC2)NC(=O)[C@@H]2CCCN2C(=O)[C@@H](NC(=O)CCc2ccccc2)CCCNC1=O` gave a Tmax of 1.06 h (C57BL/6J mice, spinal cord; oral, 1 mg/kg).
`[2H]C([2H])([2H])NC(=O)c1ccc(N2C(=S)N(c3ccc(C#N)c(C(F)(F)F)c3)C(=O)C2(C)C)cc1F` gave a Tmax of 1 h (male human, plasma; oral, 160 mg, single dose, fasted).
The Tmax of `Cc1ccc(OCC(=O)O)cc1` is reported as 3 h (Sprague-Dawley rat Crl:CD(SD), male, plasma; oral, 10 mg/kg/day of parent drug, day 90, 90-day repeated dosing).
With `CC(C)C[C@@H](NC(=O)[C@H](NC(=O)[C@H]1CCCN1)[C@H](C)O)C(=O)N[C@H](Cc1c[nH]cn1)C(=O)N[C@@H](C(=O)N[C@H](Cc1c[nH]cn1)C(=O)N[C@H](CC(N)=O)C(=O)N[C@H](CCCNC(=N)N)C(=O)N[C@H](CCCNC(=N)N)C(=O)N[C@H](CCCNC(=N)N)C(=O)N[C@H](CCCNC(=N)N)C(=O)N[C@H](CCCNC(=N)N)C(N)=O)[C@H](C)O` the Tmax was 2.7 h (beagle dog, plasma; oral, 50 mg/kg, single dose).
`CC(C)(C)NCC(SS(=O)(=O)O)c1ccccc1` (stereo not shown) gave a Tmax of 0.5 h (female Swiss Webster mice, plasma; oral, 100 mg/kg).
For `CC(C)(Sc1ccncc1-c1ccc(C#N)c2ccccc12)C(=O)OC1OC(C(=O)O)C(O)C(O)C1O` (stereo not shown), the Tmax was 2 h (plasma; oral, 15 mg, severe renal impairment, fasted).
For `NS(=O)(=O)c1ccc(N2N=C(C(F)(F)F)CC2c2ccc(F)cc2F)cc1` (stereo not shown), the Tmax was 18 h (beagle dog, plasma; oral, 4 mg/kg, single dose).
The Tmax of `CC=C1C(OC2OC(CO)C(O)C(O)C2O)OC=C(C(=O)OC)C1CC(=O)OCC1OC(OCCc2ccc(O)cc2)C(O)C(O)C1O` (stereo not shown) is reported as 0.167 h (Balb/c mice, plasma; oral, 109.2 mg/kg).
`N#Cc1ccc(-c2cc(=O)c3ccc4[nH]c(C(F)(F)F)nc4c3o2)cc1` has a Tmax of 0.5 h (5xFAD mice, 2-month-old, plasma; oral gavage, 10 mg/kg).
With `CC(C)(O)c1ncc([S@](N)(=O)=NC(=O)Nc2c3c(cc4c2CCC4)CCC3)s1` the Tmax was 5 h (human, plasma; oral, 100 mg, single dose, fed, healthy volunteers).
`CN(C)CCNC(=O)/C=C/[C@H](Cc1ccccc1)Nc1ccnc2cc(Cl)ccc12` has a Tmax of 2 h (ICR mice, healthy, plasma; oral, 5 mg/kg).
For `O=C(CCc1ccc(CNC(C(=O)O)C2CCCCC2)cn1)NO` (stereo not shown), the Tmax was 1.12 h (human, plasma; oral, 40 mg, multiple doses, once daily, patients).
With `COc1cc(C)c(Cc2ccc(O)cc2)cc1[C@@H]1S[C@H](CO)[C@@H](O)[C@H](O)[C@H]1O` the Tmax was 4.71 ± 3.04 h (Japanese T2DM patients, plasma; 0.5 mg luseogliflozin, day 1, once daily).
`CC12CC(c3ccc(S(C)(=O)=O)cc3)C3=C4CCC(=O)C=C4CCC3C1CCC2(O)C(F)(F)C(F)(F)F` (stereo not shown) has a Tmax of 0.483 h (human, plasma; intravenous, 15.7 µg, infusion).
`CC(=O)N[C@H](CC(=O)O)C(=O)N[C@H](Cc1c[nH]c2ccccc12)C(=O)N[C@H](Cc1ccccc1)C(=O)N[C@H](CCCCN)C(=O)N[C@H](C)C(=O)N[C@H](Cc1ccccc1)C(=O)N[C@H](Cc1ccc(O)cc1)C(=O)N[C@H](CC(=O)O)C(=O)N[C@H](CCCCN)C(=O)N[C@@H](C(=O)N[C@H](C)C(=O)N[C@H](CCC(=O)O)C(=O)N[C@H](CCCCN)C(=O)N[C@H](Cc1ccccc1)C(=O)N[C@H](CCCCN)C(=O)N[C@H](CCC(=O)O)C(=O)N[C@H](C)C(=O)N[C@H](Cc1ccccc1)C(N)=O)C(C)C` has a Tmax of 2.39 h (statin-treated high-risk CHD patients, plasma; oral, 300 mg daily, day 13, mean, detected subjects).
`O=C(CCc1ccc(CNC(C(=O)OC2CCCC2)C2CCCCC2)cn1)NO` (stereo not shown) has a Tmax of 0.625 h (human, plasma; oral, 20 mg, multiple doses, once daily, patients).
`CN1CCC[C@]1(C)/C=C/S(=O)(=O)NC(=O)Nc1c2c(cc3c1CCC3)CCC2` gave a Tmax of 1 h (human, plasma; oral, 100 mg, single dose).

A few entries again:
The Tmax of `CC=C1C(OC2OC(CO)C(O)C(O)C2O)OC=C(C(=O)OC)C1CC(=O)OCC1OC(OCCc2ccc(O)cc2)C(O)C(O)C1O` (stereo not shown) is reported as 0.167 h (Balb/c mice, plasma; oral, 109.2 mg/kg).
`N#Cc1ccc(-c2cc(=O)c3ccc4[nH]c(C(F)(F)F)nc4c3o2)cc1` has a Tmax of 0.5 h (5xFAD mice, 2-month-old, plasma; oral gavage, 10 mg/kg).
